Measured values gathered from unrelated publications.
A part holds a random share of what one study measured.

Series 1 — technique: universal PBM; form: double-stranded DNA, one strand shown; sample: in vitro; concentration: not given; reading: higher = stronger binding
Target: Sal-like protein 4, full length isoform B (SALL4, Homo sapiens, UniProt Q9UJQ4-2, residues 1-616)
Notes: 8-mer, flanks averaged, mean of replicates
The E-score of `TTAGAGAA` is reported as 0.1.
With `AAGTCTGA` the E-score was 0.0194.
For `ACACTATC`, the E-score was 0.213.
`AAGAAGAT` has an E-score of 0.119.
`GGCTGGCA` has an E-score of -0.274.
The E-score of `ACGATTTC` is reported as 0.186.
`CGGGCTTA` gave an E-score of -0.219.
`ATACCGCG` has an E-score of -0.112.
With `GTATGTGA` the E-score was 0.208.
`CGGATCCG` has an E-score of -0.249.
`CTGCGGGA` has an E-score of -0.314.
The E-score of `ATACCTAA` is reported as 0.244.
The E-score of `GCCTAGGA` is reported as -0.132.
For `ACACGATA`, the E-score was 0.203.
The E-score of `ATGTCTAA` is reported as 0.239.
`ACCCACCA` gave an E-score of -0.126.
With `AAGCTAAC` the E-score was 0.0166.
`CATCGCGG` gave an E-score of -0.193.
For `GAACGGTA`, the E-score was 0.0394.
For `CGATAATA`, the E-score was 0.339.
With `ATTGTGGC` the E-score was 0.0362.
For `AGCGATTA`, the E-score was 0.0416.
`CCGCAAGC` has an E-score of -0.3.
`AATACCAG` gave an E-score of 0.0794.

Series 2 — technique: RNA Bind-n-Seq; form: RNA; sample: in vitro; concentration: 365 nM; baseline: no-protein control; reading: higher = stronger binding
Target: RNA binding protein fox-1 homolog 2, RRM domain, GST-SBP tag (RBFOX2, Homo sapiens, UniProt O43251-10, residues 100-194)
Notes: natural RNA segment, single round, ends assumed
`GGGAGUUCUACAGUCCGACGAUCCAUUUUUUUUUAAAAUUGAAGGUCAGCCAUGCUUUCUGUAUUAUAUUGCAUAUGAAAUUGUUUACAAAAGAAACACUAACUCAUCCUUCUCUUUAUCAGUUGAAAGUGACUGGAAUUCUCGGGUGCCAA`: “RBNS enrichment (R)” 0.54.
For `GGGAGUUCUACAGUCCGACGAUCCCUCAGGAUAGGGAAGAGCAGGGGGAUGCAGGAAUAGCAGGGAUAGCUUGCUCCCAGCCCCCUCCCCAAUUUGGUUCCGUUGACAUAGGAAUUUUACGAUUCCCAAACCAUGGAAUUCUCGGGUGCCAA`, “RBNS enrichment (R)” read 0.987.
Under “RBNS enrichment (R)”, `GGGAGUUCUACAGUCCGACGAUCGUUGGUGCAAUAAUUAAAUAGCAAAGGAAAUCUGUAUUGGCAACUAUUAUAAUUCAAUAAUUCUUUUGUUUACUGCCCUUUUCUGUUCAAGAAUUUUCUGGAAAUUACUCUGGAAUUCUCGGGUGCCAA` is recorded as 0.681.
`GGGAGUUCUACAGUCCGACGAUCAAUUGCAUAUAUUGUAAAAUAGAGUCAGAUGUAUAUUUUAAAAUAAUUUCAGCUGACUUUCCUCUGACUGCUUUGUCUACUCAGUUAGAAAUAUUCAGAUACAAGUUUUAUGGAAUUCUCGGGUGCCAA`: “RBNS enrichment (R)” 0.678.
`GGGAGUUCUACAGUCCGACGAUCAUAAAGAAUGUAAGGGCUAUAAGUAGAAACUUUCUAUAACCUAAAUGAUGUUAUAGAAUUAUUUUUGAGCAGGAGCAGAAAGAUUAAAUAUGAUCACUUCAUACUUCUAAUGGAAUUCUCGGGUGCCAA`: “RBNS enrichment (R)” 0.768.
For `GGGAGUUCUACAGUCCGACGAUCCUGUUUUUAUUUUUCUUAGAAAUGAGAGACACUGGCAGUCAUAACUGUACUAGUUACUAUGAACAUGAAAAAAUAAUUAUCUUAGACUAUUUUAGAAGUAGGGUGUGAACUGGAAUUCUCGGGUGCCAA`, “RBNS enrichment (R)” read 0.531.
For `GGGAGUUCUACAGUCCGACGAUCACUGAGUAGCUGGCCACGGAGGCUUGCUCAUGGAGGUCUCCAUCCCCAACAUCCAGAGGCCAGAAGAAUUGGCAGCUGCCUACUUAAGGAAGCUUGGGUUUGAAGCCUGCUGGAAUUCUCGGGUGCCAA`, “RBNS enrichment (R)” read 0.483.
Under “RBNS enrichment (R)”, `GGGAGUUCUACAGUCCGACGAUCCUUUGCUUUGAGACCUUUCCUCUCCUGGGUACUGAGGUGCUAUGAAGCCAACUGACAAAGAUGCAUCACGUGUCUUAGGCUGAUGCCACUACCCGAUUUGUUUAUUUGCAUGGAAUUCUCGGGUGCCAA` is recorded as 17.
`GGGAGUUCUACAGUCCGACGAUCUUCUGCUAAGGUGGUGAGGUCGCCAACACUGGCAUGUCUCGGUAGUGGUUUGGGCAAAUUUCUGCAGGUCCCUUCCCCCCAACCCCGUCUCUGAUGAAUAAAGACCAUGAUGGAAUUCUCGGGUGCCAA` — result for “RBNS enrichment (R)”: 0.761.
For `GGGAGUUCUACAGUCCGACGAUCUUACCAUUUUGAGGGGAUUUAUACAUAUUUUAGAUAAAAAAAGUUAAAUGCUCUUAUUUUUCCAACAGCUUAACUACUCCUAGUUCAAGAGUGUCCCUUAGCCUUCCUUGUGGAAUUCUCGGGUGCCAA`, “RBNS enrichment (R)” read 0.379.
Under “RBNS enrichment (R)”, `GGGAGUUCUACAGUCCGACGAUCUUUAUGGAAAAACAACGGAAGUCCCAUUAUCCUCAACCUUGCUCAAGGCGGCAACCAGGAGGAAGUGGGGUAAAAGGGGCAGCUAUGGGCAUGAAACCAACCGAGUUGAUUGGAAUUCUCGGGUGCCAA` is recorded as 2.27.
Under “RBNS enrichment (R)”, `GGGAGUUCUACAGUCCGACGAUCCCUGGGACCCGCCUGAUAGGAGAGAACUGACUUCUACAAGUUGUCCUCUGACCCAAUAGAUUUACAAACAAACAAACAAAAGAUUAAAAAUAAGAAAAGAGGACUUAAUUUGGAAUUCUCGGGUGCCAA` is recorded as 0.627.

Series 3 — technique: competition protein-binding microarray; form: double-stranded DNA, one strand shown; sample: in vitro; concentration: 2 µM; added: Pho4 competitor, 0.05 µM; reading: higher = stronger binding
Target: Centromere-binding protein 1, full length, His-tagged (CBF1, Saccharomyces cerevisiae, UniProt P17106, residues 1-351)
Chain of UniProt P17106 (whole entry, looked up): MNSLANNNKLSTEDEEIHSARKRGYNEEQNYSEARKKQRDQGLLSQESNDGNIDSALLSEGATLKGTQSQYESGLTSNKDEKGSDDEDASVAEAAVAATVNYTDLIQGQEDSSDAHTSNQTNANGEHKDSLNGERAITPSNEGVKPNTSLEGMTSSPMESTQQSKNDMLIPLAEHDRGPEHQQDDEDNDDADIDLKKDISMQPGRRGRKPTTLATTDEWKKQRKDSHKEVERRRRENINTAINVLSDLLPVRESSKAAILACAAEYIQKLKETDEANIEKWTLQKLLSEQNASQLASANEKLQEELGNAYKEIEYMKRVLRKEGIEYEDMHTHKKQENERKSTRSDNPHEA
Notes: whole 60-bp probe, lowest competitor level
`GAAGGCCGATGCTGTGCCGTGATGGTCTTTTCCGCAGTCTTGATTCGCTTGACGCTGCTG` gave a fluorescence intensity of 50 a.u.
With `CGCCTTCTAATGGACATTCTTCTCAAACTCTACAAAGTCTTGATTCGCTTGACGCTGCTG` the fluorescence intensity was 64.1 a.u.
`CTTCTGTAAATTTGTCACTGTACTTGACGCGCCCCGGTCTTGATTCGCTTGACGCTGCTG` has a fluorescence intensity of 72 a.u.
For `CTTTCCCGATCTTGACCTGTGGGTGTAGCACATTTGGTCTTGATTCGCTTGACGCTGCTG`, the fluorescence intensity was 70.8 a.u.
The fluorescence intensity of `AAGTTATGATATCTGCACGTGGAACACTTCCAATCTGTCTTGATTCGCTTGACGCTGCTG` is reported as 821 a.u.
`TCTCTTTATTAATTACACGTGGTGATGACTCATTGGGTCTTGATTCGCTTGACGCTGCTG` gave a fluorescence intensity of 1270 a.u.
`GTCTTGTCTCATTGTCACATAACTTTCCCCACTTCAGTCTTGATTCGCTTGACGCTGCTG` gave a fluorescence intensity of 108 a.u.
For `ATATCAAATTCATTGAAGGAGGTCCCAACCGCGAGAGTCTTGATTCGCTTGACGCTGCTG`, the fluorescence intensity was 88.3 a.u.
The fluorescence intensity of `TCACTCTGCCTTCATCACATGCTTTTTTCTATGGTTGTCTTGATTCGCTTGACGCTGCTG` is reported as 399 a.u.
For `AAAGCGGTAATTTTTCACGTGAGCTCACATATCTATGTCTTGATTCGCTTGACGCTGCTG`, the fluorescence intensity was 1210 a.u.
The fluorescence intensity of `AAATTACTAAGTTGTCAGGTGGGTGACGCCGTATGAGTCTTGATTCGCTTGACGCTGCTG` is reported as 151 a.u.
`TATGACCGTCCGACCACCGTGACTCGTAACAAAGTCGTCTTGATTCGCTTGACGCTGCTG` has a fluorescence intensity of 150 a.u.
`TCTGTGCTGTTCAATAACGTGGAATCCATTTTTGCTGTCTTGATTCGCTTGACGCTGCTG` gave a fluorescence intensity of 98.1 a.u.
`TACAGAGGAGATAAAGGCGTGCCAGCAATTGAAGAGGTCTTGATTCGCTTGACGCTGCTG` has a fluorescence intensity of 92.5 a.u.
For `TCCGCATGGAAACGAAACGTGGGTATGACTTGGAAGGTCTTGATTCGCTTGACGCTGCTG`, the fluorescence intensity was 88.3 a.u.
`CGACCACATATATGGAACGTGGTCGAAATACAAAGAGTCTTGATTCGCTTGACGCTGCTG` gave a fluorescence intensity of 157 a.u.
For `CTTCTGTAAATTTGCGACGTGGGTGGACGCGCCCCGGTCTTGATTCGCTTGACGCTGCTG`, the fluorescence intensity was 68.5 a.u.
`AAATTACTAAGTTGGAGCGTGGGTGACGCCGTATGAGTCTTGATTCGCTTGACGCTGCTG` gave a fluorescence intensity of 61.7 a.u.
With `CGGGGTTAAGTTTGCTCTGTGGGTGGCTTGCAGCAGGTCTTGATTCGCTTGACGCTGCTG` the fluorescence intensity was 71.3 a.u.
`CTTTCCCGATCTTGGTAGGTGGGTGTAGCACATTTGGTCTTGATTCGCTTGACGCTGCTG` gave a fluorescence intensity of 80.5 a.u.

Series 4 — technique: protein binding microarray; form: double-stranded DNA, one strand shown; sample: in vitro; concentration: not given; baseline: not given; reading: higher = stronger binding
Target: Histone acetyltransferase KAT6A, both winged helices, GST fusion (KAT6A, Homo sapiens, UniProt Q92794, residues 1-181)
Notes: 8-mer, flanks averaged, mean of 2 arrays, mostly near background
Construct (chain): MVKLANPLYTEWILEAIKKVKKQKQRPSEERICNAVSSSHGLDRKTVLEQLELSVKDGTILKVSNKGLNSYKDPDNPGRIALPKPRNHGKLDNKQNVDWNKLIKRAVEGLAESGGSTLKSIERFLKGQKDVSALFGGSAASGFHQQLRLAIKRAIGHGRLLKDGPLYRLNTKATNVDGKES
For `CCGCTATA`, the E-score was 0.148.
The E-score of `CGACTGCA` is reported as -0.0699.
With `ACGGAGTG` the E-score was 0.272.
`CGCAAGTC` has an E-score of 0.0448.
With `GTCGCAAA` the E-score was 0.136.
With `AAAATAAT` the E-score was -0.0755.
For `AGTTTTCA`, the E-score was -0.0364.
For `CGAGGTAA`, the E-score was 0.00825.
`ATGTACTA` gave an E-score of -0.175.
`AACATTAG` has an E-score of -0.093.
For `AAAGCACT`, the E-score was -0.178.
The E-score of `GGACGTAA` is reported as 0.0881.
With `GCCATAAA` the E-score was 0.00575.
The E-score of `CGATCGCG` is reported as 0.313.
With `CGCCCAAC` the E-score was -0.0685.
For `AGGAGCAA`, the E-score was -0.236.
For `GACTAACC`, the E-score was -0.0955.
`CCGTTCCC` gave an E-score of 0.148.
With `TATCAACA` the E-score was -0.125.
For `CCTGCTAA`, the E-score was -0.162.
For `AGGGATAG`, the E-score was -0.0988.
`CATAATCC` has an E-score of -0.0888.
With `CTGCATAC` the E-score was -0.0364.

Repeated from above (series 4):
`AACATTAG` has an E-score of -0.093.
For `AAAGCACT`, the E-score was -0.178.
The E-score of `GGACGTAA` is reported as 0.0881.
With `GCCATAAA` the E-score was 0.00575.
The E-score of `CGATCGCG` is reported as 0.313.
With `CGCCCAAC` the E-score was -0.0685.
For `AGGAGCAA`, the E-score was -0.236.
For `GACTAACC`, the E-score was -0.0955.
`CCGTTCCC` gave an E-score of 0.148.
